Measured values of several laboratories.
A part holds a random share of what one study measured. Positions count from the first letter of the parent shown.

Sample 1 — method: universal PBM; molecule type: double-stranded DNA, one strand shown; sample: in vitro; concentration: 600 nM; reading: higher = stronger binding
Target: Sal-like protein 4, full length isoform A (SALL4, Homo sapiens, UniProt Q9UJQ4, residues 1-1053)
Chain of UniProt Q9UJQ4 (whole entry, looked up): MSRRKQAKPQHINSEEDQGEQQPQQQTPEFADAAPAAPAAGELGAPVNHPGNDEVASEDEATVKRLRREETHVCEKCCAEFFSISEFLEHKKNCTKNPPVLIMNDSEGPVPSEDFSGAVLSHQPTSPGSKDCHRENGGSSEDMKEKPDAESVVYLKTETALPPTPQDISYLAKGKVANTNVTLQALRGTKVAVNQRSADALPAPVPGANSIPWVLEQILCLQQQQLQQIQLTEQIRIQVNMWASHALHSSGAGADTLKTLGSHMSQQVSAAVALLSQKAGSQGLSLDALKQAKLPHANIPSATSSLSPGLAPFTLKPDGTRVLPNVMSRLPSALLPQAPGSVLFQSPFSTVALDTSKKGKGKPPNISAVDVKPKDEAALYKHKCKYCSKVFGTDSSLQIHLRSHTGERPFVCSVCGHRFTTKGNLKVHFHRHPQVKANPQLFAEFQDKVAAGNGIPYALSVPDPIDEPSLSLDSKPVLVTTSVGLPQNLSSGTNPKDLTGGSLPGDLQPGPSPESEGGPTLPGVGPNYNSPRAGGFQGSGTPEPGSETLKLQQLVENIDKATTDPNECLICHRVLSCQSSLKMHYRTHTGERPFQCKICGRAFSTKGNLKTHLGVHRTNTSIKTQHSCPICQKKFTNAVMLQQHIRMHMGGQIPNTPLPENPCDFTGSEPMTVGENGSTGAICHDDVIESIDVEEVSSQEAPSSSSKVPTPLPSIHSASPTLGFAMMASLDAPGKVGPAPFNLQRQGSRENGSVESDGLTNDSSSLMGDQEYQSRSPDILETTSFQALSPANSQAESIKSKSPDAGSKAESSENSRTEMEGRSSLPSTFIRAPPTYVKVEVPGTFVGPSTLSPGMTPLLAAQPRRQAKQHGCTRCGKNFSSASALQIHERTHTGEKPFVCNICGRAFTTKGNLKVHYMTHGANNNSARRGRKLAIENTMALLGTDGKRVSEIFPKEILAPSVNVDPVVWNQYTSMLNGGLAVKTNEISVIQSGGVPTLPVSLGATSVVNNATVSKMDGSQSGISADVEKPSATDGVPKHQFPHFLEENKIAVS
Notes: 8-mer, flanks averaged, mean of replicates
The E-score of `CTTTACAA` is reported as 0.132.
`CTCCGAAC` gave an E-score of -0.234.
`GAAGGCCC` has an E-score of -0.266.
The E-score of `ATCGGGCC` is reported as -0.29.
The E-score of `GCCTTTGA` is reported as -0.0861.
`CGCATCCC` gave an E-score of -0.284.
For `TAAGACGA`, the E-score was 0.112.
The E-score of `CCCATGGA` is reported as -0.145.

Sample 2 — method: EMSA with sequencing; molecule type: double-stranded DNA, one strand shown; sample: in vitro; concentration: 10 and 20 nM; baseline: negative control set to 0; reading: higher = stronger binding
Target: Hepatocyte nuclear factor 3-alpha (Foxa1, Mus musculus, UniProt P35582, residues 1-468, full length assumed)
Notes: whole designed probe, mean of two concentrations, ends assumed
Residues (chain): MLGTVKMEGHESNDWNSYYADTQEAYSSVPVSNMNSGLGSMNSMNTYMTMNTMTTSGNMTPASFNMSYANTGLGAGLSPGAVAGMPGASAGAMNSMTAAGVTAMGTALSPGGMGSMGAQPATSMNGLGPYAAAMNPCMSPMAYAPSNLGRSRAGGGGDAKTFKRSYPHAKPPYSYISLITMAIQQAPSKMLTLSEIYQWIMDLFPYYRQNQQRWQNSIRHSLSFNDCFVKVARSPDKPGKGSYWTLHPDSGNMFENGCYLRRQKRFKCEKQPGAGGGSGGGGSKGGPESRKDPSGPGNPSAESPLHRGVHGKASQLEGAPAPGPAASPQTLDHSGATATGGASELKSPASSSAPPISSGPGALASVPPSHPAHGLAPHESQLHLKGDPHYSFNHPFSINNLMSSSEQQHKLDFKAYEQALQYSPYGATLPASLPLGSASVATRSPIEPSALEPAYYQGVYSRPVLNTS
Under “normalised bound fraction”, `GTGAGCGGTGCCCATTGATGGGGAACATCTTCCCCCTCTTCCTTGCCCCACCAGCTCACCTTCCCGGGTTGTTTACTTTGAGCAAAGTAAACAAAGCCGGCATTCGTTAACCCTCTTCTGGCGCAAACTGCCAAAGTAAACAGATCTAACATGGTCCTTTGGCGACGCCAGGCTCCGGGAGAGCAAAGCACCGTGTCAGGGCCATGATCCGGGGTGGCCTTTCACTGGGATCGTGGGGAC` is recorded as 0.569 ratio.
`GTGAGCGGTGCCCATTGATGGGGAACAACGCTGTAGGTCAGAAAGATGTGCTTACCTTCACACAGAGCTGCAGAAATCAGGAAGGCTGCCAAGAGAGCCACGGCCAGCTTGGAAGTCATGTTTACACACAGTGAGATGGTTCCTTCCGGTGGTTTCTTCCTGGCTCTTGTCCTAGAAGCTTGTGTGCTCTGCTGTCTCTGAAAGTTTGTGCCTTATGGATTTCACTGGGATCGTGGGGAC` — result for “normalised bound fraction”: 0.248 ratio.
For `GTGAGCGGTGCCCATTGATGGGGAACAGGCACAAGGTATGAATCACTAAGAATCTAGCAGCAGCTCTAGAAGCCTCCAAAGATAATTGCACTTCCCCAACAGGGGGACGGGCGTCGAGTGTAAATATGAAAGAACAGTGGATGGCCTAAATCAGTATGTGTCACTCTTTGTAAAGAGCCACAAGTGTTTGACTAGGGAAAAAGGAAAAGAGGCGAGAGTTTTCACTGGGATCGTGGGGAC`, “normalised bound fraction” read 0.174 ratio.
`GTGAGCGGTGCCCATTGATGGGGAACATCTTCCCCCTCTTCCTTGCCCCACCAGCTCACCTTCCCGGGTTATTTGCAGATAGGAAAATAAATAAAGCCGGCATTCGTTAACCCTCTTCTGGCGCAAACGTTGTTCGCTTCTGGATGAATCATGGTCCTTTGGCGACGCCAGGCTCCGGGAGAGCAAAGCACCGTGTCAGGGCCATGATCCGGGGTGGCCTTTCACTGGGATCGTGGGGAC`: “normalised bound fraction” 0.306 ratio.
Under “normalised bound fraction”, `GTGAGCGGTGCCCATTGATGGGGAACGTGTTATGTGTTCTTTGAATACCTTATTGACAAGAACTATAACTTTTCCAGGCTCAGATGCTTTTTTCTTCTTGTCTAAGTGATCCTTGGCAATGTAATCTGCCACTCTGGTTTTTCCACTCCCTGTAGGGAGGCAGATGATGATATTCTTCCCTTCCAAGGCTGGCTGGGCAACTTCCATTTGGTAAGGCCTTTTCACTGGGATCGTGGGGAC` is recorded as -0.0276 ratio.
For `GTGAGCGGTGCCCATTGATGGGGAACATACTGGTATTACCCACCTCACTATTATGAAGTATAACATACAGCGTGCACAGCACAGTGTCTGGCCCATTGTAGTTGCTCAATAGCTTTTAGAGATTGCTTTTATGAGTTTGAGTCATCTTTGTGGTGAGGATTACAGACCCTGACCCCTCTACTTGAGGTAGAACCAAGTCTATGGTTTCTCAGCCTGGGCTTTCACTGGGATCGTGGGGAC`, “normalised bound fraction” read -0.0587 ratio.
For `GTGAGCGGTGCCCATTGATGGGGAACTCTTTCACTCAAGTGGTATATCCCACAGCCCTAAAGAAGCAAGGGAAATAAGAATTAGAACTAGACATCCCAGGAGACAAAGAATTCAACAAAGCAATCTCACTTCCTGCTTAACCAATCCCTTCACAAATTACAGAAAATCTCTCTGGCTCAGGCCGGGCAGTGAGTTCATTTATTTCAACAAAATCAAAGATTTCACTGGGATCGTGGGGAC`, “normalised bound fraction” read 0.00616 ratio.
For `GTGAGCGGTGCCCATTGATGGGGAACCTCATTCCTTGCTTCCGCCAATAATCTGACTAGTAAAGAAGTCACTGCATGCCACAAATTGTCAGTGCTGGAGTGACTCAGAAGGAAGTTATTTATTTACTTATTTAATATATGAGTGTCACAGATGCAAATTCCATCTTGAGAATACCAACTCCTGATGCCAACTGATTGTCAGTCATGGCTACAACAGGAGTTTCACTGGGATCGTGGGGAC`, “normalised bound fraction” read 0.481 ratio.

Sample 3 — method: DHFR PCA, deep sequencing; sample: yeast; with: (+)-ABA 0.0091 µM; baseline: wild-type fitted maximum; reading: higher = stronger binding
Target: ABI1, truncated, D143A, DHFR fusion (Arabidopsis thaliana)
Notes: methotrexate growth selection, single substitutions
Starting sequence: PYL1, truncated, DHFR fusion (Arabidopsis thaliana); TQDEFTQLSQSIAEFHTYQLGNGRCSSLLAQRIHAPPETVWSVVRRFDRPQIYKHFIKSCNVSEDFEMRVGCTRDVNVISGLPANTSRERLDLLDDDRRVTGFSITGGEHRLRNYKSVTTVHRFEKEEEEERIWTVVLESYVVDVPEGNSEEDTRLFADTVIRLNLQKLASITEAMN; partner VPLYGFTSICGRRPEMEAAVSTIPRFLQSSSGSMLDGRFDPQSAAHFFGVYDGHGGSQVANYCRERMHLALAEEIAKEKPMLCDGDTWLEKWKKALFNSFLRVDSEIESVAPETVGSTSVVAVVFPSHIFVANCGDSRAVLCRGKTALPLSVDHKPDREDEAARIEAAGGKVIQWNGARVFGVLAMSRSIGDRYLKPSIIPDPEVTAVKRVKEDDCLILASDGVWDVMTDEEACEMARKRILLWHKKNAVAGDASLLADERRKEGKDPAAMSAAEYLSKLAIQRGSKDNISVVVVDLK
`N85L`: “relative binding score” 62.4%.
`E67Y`: “relative binding score” 1.53%.
`T1R`: “relative binding score” 23.3%.
`T1H`: “relative binding score” 23.2%.
Under “relative binding score”, `E125I` is recorded as 22.6%.
For `K116D`, “relative binding score” read -2.09%.
For `Q10M`, “relative binding score” read 7.15%.
For `S9M`, “relative binding score” read 23.4%.

Other studies, line by line
The remaining compound of CCC(C(=O)N(C)C)N(c1ccc(C)c(C)c1)S(C)(=O)=O (stereo not shown) is reported as > 100% (mouse, microsomes or S9; 2 µM, 0.5 h).

A few entries again (sample 3):
`E67Y`: “relative binding score” 1.53%.
`T1R`: “relative binding score” 23.3%.
`T1H`: “relative binding score” 23.2%.
Under “relative binding score”, `E125I` is recorded as 22.6%.
